# Measurements of several laboratories.
# Each numbered part is a random draw from the data of one study; scales do not carry over between parts. Changes are numbered by the printed parent chain.

# Block 1
# Target: Histone acetyltransferase KAT6A, winged helix 1, GST fusion (KAT6A, Homo sapiens, UniProt Q92794, residues 1-85)
# Technique: protein binding microarray
# Molecule type: double-stranded DNA, one strand shown
# Sample: in vitro
# Tested at: not given
# Notes: 8-mer, flanks averaged, mean of 2 arrays, mostly near background
# Reference: not given
# Reading: higher = stronger binding
# Target sequence (chain): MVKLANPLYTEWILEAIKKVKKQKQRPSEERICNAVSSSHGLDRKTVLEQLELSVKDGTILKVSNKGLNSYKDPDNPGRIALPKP
Oligonucleotide,E-score
GCTGTCCC,0.0523
ATGAACGC,0.0884
CGTCCGTC,0.251
GCTTAGAC,0.0877

# Block 2
# Target: CCND1, cyclin fold, Cln2 fusion (human)
# Technique: yeast growth competition, sequencing
# Sample: yeast
# Notes: weak parent motif
# Reference: not given
# Reading: higher = stronger binding
# Parent: WEE1 docking peptide (human); HKTFRKLRLFDTP; partner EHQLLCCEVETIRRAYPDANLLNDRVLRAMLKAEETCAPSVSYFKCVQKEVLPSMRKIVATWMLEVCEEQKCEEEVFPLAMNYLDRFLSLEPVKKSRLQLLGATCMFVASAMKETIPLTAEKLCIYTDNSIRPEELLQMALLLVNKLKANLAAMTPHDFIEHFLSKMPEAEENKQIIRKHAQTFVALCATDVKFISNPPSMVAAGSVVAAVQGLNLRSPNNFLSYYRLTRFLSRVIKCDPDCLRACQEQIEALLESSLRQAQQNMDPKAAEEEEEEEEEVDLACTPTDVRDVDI
Substitution,normalised enrichment score
R8Q,0.744
H1P,-0.263
R5P,-0.119
H1T,-0.291

# Block 3
# Target: Sal-like protein 4, full length isoform B (SALL4, Homo sapiens, UniProt Q9UJQ4-2, residues 1-616)
# Technique: universal PBM
# Molecule type: double-stranded DNA, one strand shown
# Sample: in vitro
# Tested at: not given
# Notes: 8-mer, flanks averaged, mean of replicates
# Reading: higher = stronger binding
# Construct (chain): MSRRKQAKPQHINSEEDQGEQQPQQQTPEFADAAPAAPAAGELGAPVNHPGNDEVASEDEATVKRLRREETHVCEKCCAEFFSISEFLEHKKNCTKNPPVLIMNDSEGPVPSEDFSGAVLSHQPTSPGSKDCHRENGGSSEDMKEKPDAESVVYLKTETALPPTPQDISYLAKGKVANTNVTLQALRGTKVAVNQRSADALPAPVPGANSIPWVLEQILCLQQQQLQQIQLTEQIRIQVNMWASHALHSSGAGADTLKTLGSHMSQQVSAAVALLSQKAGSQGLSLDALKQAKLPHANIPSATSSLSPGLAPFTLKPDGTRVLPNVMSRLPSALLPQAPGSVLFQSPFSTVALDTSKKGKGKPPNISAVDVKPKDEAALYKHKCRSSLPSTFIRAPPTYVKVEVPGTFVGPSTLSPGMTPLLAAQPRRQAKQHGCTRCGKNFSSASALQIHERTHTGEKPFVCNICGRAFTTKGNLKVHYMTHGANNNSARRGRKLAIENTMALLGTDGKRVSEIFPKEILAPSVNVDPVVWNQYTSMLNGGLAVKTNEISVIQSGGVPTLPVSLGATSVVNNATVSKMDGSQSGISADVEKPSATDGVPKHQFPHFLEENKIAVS
Oligonucleotide,E-score
AGCGAAAG,-0.0505
ACGCAATC,-0.0221
CGTAGGGA,-0.0467
AGACCAAA,0.0611
AGCCCCCG,-0.375

# Other studies, line by line
Substance,target,test,system,setting,scale,quantity,result
"PhoQ, residues 284 288 289 292 302 303 NLSRDF","PhoP, residues 12 14 15 18 19 VQGLL (Escherichia coli, UniProt P23836)","Sort-seq, refers to: YFP reporter",E. coli,"PhoQ-PhoP variant library, with: 10 µM Mg2+","reference: high Mg2+ state, higher = stronger signaling",fold induction,17.4

# Excerpt of the above (block 1):
Oligonucleotide,E-score
GCTGTCCC,0.0523
CGTCCGTC,0.251
